Results from different studies.
Numbered parts are unrelated; each lists some results of a single study. Substitutions count along the parent as printed.

Study 1
Target: ABI1, truncated, D143A, DHFR fusion (Arabidopsis thaliana)
Technique: DHFR PCA, deep sequencing
Medium: yeast
Setting: methotrexate growth selection, single substitutions
Together with: (+)-ABA 710 µM
Baseline: wild-type fitted maximum
Direction: higher = stronger binding
Parent: PYL1, truncated, DHFR fusion (Arabidopsis thaliana); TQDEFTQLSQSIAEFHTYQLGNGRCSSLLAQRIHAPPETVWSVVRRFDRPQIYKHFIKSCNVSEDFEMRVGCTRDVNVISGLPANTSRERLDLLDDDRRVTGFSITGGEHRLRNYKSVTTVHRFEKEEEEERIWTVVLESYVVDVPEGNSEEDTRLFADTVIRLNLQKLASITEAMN
Variant	relative binding score [%]
F56G	39.8
L29S	86.8
Q7H	99.6
D92N	91.1
W41E	-8.62
V43Q	94

Study 2
Target: Sal-like protein 4, full length isoform A (SALL4, Homo sapiens, UniProt Q9UJQ4, residues 1-1053)
UniProt Q9UJQ4, sequence (whole entry, looked up): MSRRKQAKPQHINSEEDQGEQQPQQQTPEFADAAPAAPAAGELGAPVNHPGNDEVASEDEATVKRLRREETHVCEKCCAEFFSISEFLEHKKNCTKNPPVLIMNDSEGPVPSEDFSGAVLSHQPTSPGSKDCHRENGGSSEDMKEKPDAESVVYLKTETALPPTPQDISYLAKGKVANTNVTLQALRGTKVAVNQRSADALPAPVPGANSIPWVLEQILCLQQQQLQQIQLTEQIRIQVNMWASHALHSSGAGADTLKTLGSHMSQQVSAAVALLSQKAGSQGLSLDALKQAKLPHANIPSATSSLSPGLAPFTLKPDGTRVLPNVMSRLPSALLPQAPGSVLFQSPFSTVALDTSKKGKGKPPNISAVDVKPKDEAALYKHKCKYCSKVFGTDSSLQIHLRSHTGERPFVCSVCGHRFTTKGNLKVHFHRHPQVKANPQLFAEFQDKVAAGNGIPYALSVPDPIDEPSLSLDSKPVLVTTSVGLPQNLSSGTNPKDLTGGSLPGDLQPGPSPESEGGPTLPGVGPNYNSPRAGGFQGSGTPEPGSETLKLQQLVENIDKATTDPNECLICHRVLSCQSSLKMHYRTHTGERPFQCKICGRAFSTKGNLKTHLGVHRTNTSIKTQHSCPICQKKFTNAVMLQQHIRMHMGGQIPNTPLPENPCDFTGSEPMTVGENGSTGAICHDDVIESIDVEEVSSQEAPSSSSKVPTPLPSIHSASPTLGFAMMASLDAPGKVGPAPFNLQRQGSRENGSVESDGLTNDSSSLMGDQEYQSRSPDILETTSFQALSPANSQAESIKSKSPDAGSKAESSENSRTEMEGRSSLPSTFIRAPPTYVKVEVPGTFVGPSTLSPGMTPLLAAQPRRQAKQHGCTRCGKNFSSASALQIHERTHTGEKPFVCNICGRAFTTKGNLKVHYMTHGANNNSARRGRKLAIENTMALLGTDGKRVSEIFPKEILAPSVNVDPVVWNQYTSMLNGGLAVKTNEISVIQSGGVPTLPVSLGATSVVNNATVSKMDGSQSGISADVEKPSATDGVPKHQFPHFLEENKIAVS
Technique: universal PBM
Molecule type: double-stranded DNA, one strand shown
Medium: in vitro
Concentration: 600 nM
Setting: 8-mer, flanks averaged, mean of replicates
Direction: higher = stronger binding
Oligonucleotide	E-score
GAATTCCA	0.125
CAGCAGTC	-0.15
GTTCTGCA	-0.0386
ATCGGGAA	-0.183
ACTTGTCA	0.00809
GCCTGAAA	-0.00373
AAACTAAT	0.279
GTTGGGCA	-0.0742
AACACCGG	-0.087
GACTGTCA	-0.0708
GGGCACGA	-0.158
CCGGATTA	-0.092

Study 3
Target: CCND3, cyclin fold, Cln2 fusion (human)
Technique: yeast growth competition, sequencing
Medium: yeast
Setting: weak parent motif
Baseline: not given
Direction: higher = stronger binding
Parent: DOT1L docking peptide (human); SEAKRRIVFTITT
Variant	normalised enrichment score
SEAKARIVFTITT [R5A]	0.304
SEAKRRIVFTITA [T13A]	0.656
SEAKRAIVFTITT [R6A]	-0.0281
SEAKRRIVFAITT [T10A]	0.0955
SEAKRRAVFTITT [I7A]	0.154
SEAKRRIAFTITT [V8A]	0.314

Single results of other studies
Substance	target	assay	test system	conditions	scale	measurement	result
PhoQ, residues 284 288 289 292 302 303 SVTLVV	PhoP, residues 12 14 15 18 19 MHTVL (Escherichia coli, UniProt P23836)	Sort-seq, refers to: YFP reporter	E. coli	PhoQ-PhoP variant library, together with: 10 µM Mg2+	baseline: high Mg2+ state, higher = stronger signaling	fold induction	13.8

A few entries again (study 2):
Oligonucleotide	E-score
AACACCGG	-0.087
AAACTAAT	0.279
